Published values from different studies.
Protocols differ between the studies behind these lines. ± gives the spread as reported.

N=C(N)NCCC[C@@H]1NC(=O)[C@H](CCCCNC(=O)CC[C@H](NC(=O)CCOCCOCCOCCOCCNC(=O)CC[C@H](NC(=O)CN2CCN(CC(=O)O)CCN(CC(=O)O)CCN(CC(=O)O)CC2)C(=O)NCCOCCOCCOCCOCCC(=O)N[C@@H](CCC(=O)NCCCC[C@@H]2NC(=O)[C@@H](Cc3ccccc3)NC(=O)[C@H](CC(=O)O)NC(=O)CNC(=O)[C@H](CCCNC(=N)N)NC2=O)C(=O)NCCCC[C@@H]2NC(=O)[C@@H](Cc3ccccc3)NC(=O)[C@H](CC(=O)O)NC(=O)CNC(=O)[C@H](CCCNC(=N)N)NC2=O)C(=O)NCCCC[C@@H]2NC(=O)[C@@H](Cc3ccccc3)NC(=O)[C@H](CC(=O)O)NC(=O)CNC(=O)[C@H](CCCNC(=N)N)NC2=O)NC(=O)[C@@H](Cc2ccccc2)NC(=O)[C@H](CC(=O)O)NC(=O)CNC1=O [indium-111 labelled]
tissue uptake (female athymic nude mice, heart; intravenous, 3 µCi, 24 h, U-87 MG glioma xenograft): 0.31 ± 0.12 %ID/g

CSCC[C@H](NC(=O)[C@H](CC(C)C)NC(=O)CNC(=O)[C@H](Cc1ccccc1)NC(=O)[C@H](Cc1ccccc1)NC(=O)[C@H](CCC(N)=O)NC(=O)[C@H](CCC(N)=O)NC(=O)[C@@H]1CCCN1C(=O)[C@H](CCCCNC(=O)CCC1=[N+]2C(=Cc3c(C)cc(C)n3[B-]2(F)F)C=C1)NC(=O)[C@@H]1CCCN1C(=O)[C@@H](N)CCCNC(=N)N)C(N)=O
emission maximum (PBS; 10 nM, pH 7.4): 510 nm

N=C(N)NCCC[C@@H]1NC(=O)[C@H](CCCCNC(=O)CCOCCOCCOCCOCCNC(=O)CN2CCN(CC(=O)O)CCN(CC(=O)O)CCN(CC(=O)O)CC2)NC(=O)[C@@H](Cc2ccccc2)NC(=O)[C@H](CC(=O)O)NC(=O)CNC1=O [indium-111 labelled]
tissue uptake (female athymic nude mice, heart; intravenous, 3 µCi, 24 h, U-87 MG glioma xenograft): 0.14 ± 0.01 %ID/g

CCCC[C@H](NC(=O)CCCCCCCNC(=O)c1ccc(NN)nc1)C(=O)N[C@H]1CC(=O)NCCCC[C@@H](C(N)=O)NC(=O)[C@H](Cc2c[nH]c3ccccc23)NC(=O)[C@H](CCCNC(=N)N)NC(=O)[C@@H](Cc2ccccc2)NC(=O)[C@H](Cc2c[nH]cn2)NC1=O [technetium-99m labelled]
uptake (C57 mouse, B16/F1 melanoma, liver; intravenous, 0.5 h): 3.19 ± 0.39 %ID/g

CCCC[C@H](NC(=O)CNC(=O)CNC(=O)c1ccc(NN)nc1)C(=O)N[C@H]1CC(=O)NCCCC[C@@H](C(N)=O)NC(=O)[C@H](Cc2c[nH]c3ccccc23)NC(=O)[C@H](CCCNC(=N)N)NC(=O)[C@@H](Cc2ccccc2)NC(=O)[C@H](Cc2c[nH]cn2)NC1=O [technetium-99m labelled]
tissue uptake ratio (C57 mouse, B16/F1 melanoma-bearing; intravenous, 2 h; reference: tumour over blood): 83.2

CCCCC/C=C\C/C=C\CCCCCCCC(=O)OC[C@H](NC(=O)[C@H](Cc1c[nH]c2ccccc12)NC(=O)[C@H](Cc1c[nH]cn1)NC(=O)[C@@H]1CCC(=O)N1)C(=O)N[C@@H](Cc1ccc(O)cc1)C(=O)N[C@H](CC(C)C)C(=O)N[C@@H](CC(C)C)C(=O)N[C@@H](CCCNC(=N)N)C(=O)N1CCC[C@H]1C(=O)NCC
conversion to leucine (HPLC; human plasma; 1 mg/mL, 4 weeks, 37 °C): 85.5%

N=C(N)NCCC[C@@H]1NC(=O)[C@H](CCCCNC(=O)CC[C@H](NC(=O)CCOCCOCCOCCOCCNC(=O)CN2CCN(CC(=O)O)CCN(CC(=O)O)CCN(CC(=O)O)CC2)C(=O)NCCCC[C@@H]2NC(=O)[C@@H](Cc3ccccc3)NC(=O)[C@H](CC(=O)O)NC(=O)CNC(=O)[C@H](CCCNC(=N)N)NC2=O)NC(=O)[C@@H](Cc2ccccc2)NC(=O)[C@H](CC(=O)O)NC(=O)CNC1=O [indium-111 labelled]
tissue uptake (female athymic nude mice, blood; intravenous, 3 µCi, 72 h, U-87 MG glioma xenograft): 0.03 ± 0.01 %ID/g

CC(C)C[C@H](NC(=O)[C@@H]1CCCN1C(=O)[C@H](CCCCN)NC(=O)[C@@H](N)CO)C(=O)N1CCC[C@H]1C(=O)N[C@@H](CCC(=O)O)C(=O)N[C@H](C(=O)N[C@H](C(=O)N[C@@H](CC(=O)O)C(=O)N[C@@H](CCC(=O)O)C(=O)N[C@@H](Cc1ccc(O)cc1)C(=O)N[C@@H](Cc1cn(CCOCCOCCOCCNC(=O)CCc2ccc(O)c(CN(CCN(CC(=O)O)Cc3cc(CCC(=O)NCCCC[C@H](NC(=O)N[C@@H](CCC(=O)O)C(=O)O)C(=O)O)ccc3O)CC(=O)O)c2)nn1)C(=O)O)[C@@H](C)O)C(C)C [gallium-68 labelled]
standardized uptake value (NMRI nu/nu mice, LNCaP tumour, lung; 135.34 nmol/kg, low molar activity): 0.09 g/g

C[C@@H](O)[C@@H]1NC(=O)[C@H](CCCCN)NC(=O)[C@@H](Cc2c[nH]c3ccccc23)NC(=O)[C@H](Cc2ccc(O)cc2)NC(=O)[C@@H](NC(=O)[C@@H](Cc2ccccc2)NC(=O)c2ccc(C[C@H]3CN(CC(=O)O)CCN(CC(=O)O)CCN(CC(=O)O)CCN3CC(=O)O)cc2)CSSC[C@@H](C(=O)N[C@H](CO)[C@@H](C)O)NC1=O [gallium-67 labelled]
biodistribution (ICR mouse, spleen and bone; intravenous, dose not given, 1, 3 and 1 h; reference: [67Ga]Ga-DOTATOC): no effect

N=C(N)NCCC[C@@H]1NC(=O)[C@H](CCCCNC(=O)CCOCCOCCOCCOCCNC(=O)CC[C@H](NC(=O)CCOCCOCCOCCOCCNC(=O)CC[C@H](NC(=O)CN2CCN(CC(=O)O)CCN(CC(=O)O)CCN(CC(=O)O)CC2)C(=O)NCCOCCOCCOCCOCCC(=O)N[C@@H](CCC(=O)NCCOCCOCCOCCOCCC(=O)NCCCC[C@@H]2NC(=O)[C@@H](Cc3ccccc3)NC(=O)[C@H](CC(=O)O)NC(=O)CNC(=O)[C@H](CCCNC(=N)N)NC2=O)C(=O)NCCOCCOCCOCCOCCC(=O)NCCCC[C@@H]2NC(=O)[C@@H](Cc3ccccc3)NC(=O)[C@H](CC(=O)O)NC(=O)CNC(=O)[C@H](CCCNC(=N)N)NC2=O)C(=O)NCCOCCOCCOCCOCCC(=O)NCCCC[C@@H]2NC(=O)[C@@H](Cc3ccccc3)NC(=O)[C@H](CC(=O)O)NC(=O)CNC(=O)[C@H](CCCNC(=N)N)NC2=O)NC(=O)[C@@H](Cc2ccccc2)NC(=O)[C@H](CC(=O)O)NC(=O)CNC1=O [indium-111 labelled]
tissue uptake (female athymic nude mice, muscle; intravenous, 3 µCi, 4 h, U-87 MG glioma xenograft): 0.67 ± 0.09 %ID/g

CSCC[C@H](NC(=O)[C@H](CC(C)C)NC(=O)[C@H](Cc1c[nH]cn1)NC(=O)CNC(=O)[C@@H](NC(=O)[C@H](C)NC(=O)[C@H](Cc1c[nH]c2ccccc12)NC(=O)[C@H](CCC(N)=O)NC(=O)CCCCCNC(=O)CNC(=O)CNC(=O)CNC(=O)CSC(C)=O)C(C)C)C(N)=O [technetium-99m labelled]
tissue uptake (nude mouse, PC-3 xenograft, tumor; 90 min, added: excess unlabelled conjugate): 0.16 ± 0.02 %ID/g

CCCC[C@H](NC(=O)CNC(=O)[C@H](CO)NC(=O)CNC(=O)c1ccc(NN)nc1)C(=O)N[C@H]1CC(=O)NCCCC[C@@H](C(N)=O)NC(=O)[C@H](Cc2c[nH]c3ccccc23)NC(=O)[C@H](CCCNC(=N)N)NC(=O)[C@@H](Cc2ccccc2)NC(=O)[C@H](Cc2c[nH]cn2)NC1=O [technetium-99m labelled]
uptake (C57 mouse, B16/F1 melanoma, bone; intravenous, 2 h): 0.12 ± 0.13 %ID/g

CC(ON1C(C)(C)CCCC1(C)C)c1ccc(NC(=O)[C@@H](NC(=O)[C@@H]2CCCN2C(=O)[C@H](C)NC(=O)[C@H](C)NC(=O)CCC(=O)O)C(C)C)cc1 (stereo partly shown)
stability time (EPR; buffer; 37 °C, no HNE): ≥ 16 h
